Measurements from different studies.
Each numbered part is a random draw from the data of one study; scales do not carry over between parts. Several values in a cell are separate wells, animals, samples, runs or records.

Sample 1
Structure (SMILES): O=C(O)C1Oc2cc(F)ccc2N(Cc2ccccc2)C1=O (stereo not drawn)
Organism: Arabidopsis thaliana
Strain: Col-0
Sample: seedlings
Quantity: inhibition
root length; 25 µg/mL; baseline: water control: 20.2%
root length; 3.125 µg/mL: 5.21%
hypocotyl length; 12.5 µg/mL: 12.8%
root length; 6.25 µg/mL; baseline: water control: 10.8%
hypocotyl length; 100 µg/mL: 36.4%
root length; 50 µg/mL: 27.8%
root length; 25 µg/mL: 20.2%
root length; 50 µg/mL; baseline: water control: 27.8%

Sample 2
Compound: C[C@@H]1CN(c2ccc(-c3cc(C(=O)NCCOCCOCCOCCOCCNC(=O)Cn4cc(-c5[nH]cc(C(=O)N[C@@H](CC(N)=O)c6ccc(F)c(Cl)c6)c5-c5ccc(Cl)cc5F)cn4)ccc3F)cc2NC(=O)c2c[nH]c(=O)cc2C(F)(F)F)C[C@H](C)N1C
Read-out: thermal unfolding
Method: differential scanning fluorimetry
Tested at: 5.5 µM
Direction: higher = more unfolded
Quantity: SYPRO Orange fluorescence
WDR5: WD repeat-containing protein 5 (WDR5, Homo sapiens, UniProt P61964)
DCAF1: DDB1- and CUL4-associated factor 1 (DCAF1, Homo sapiens, UniProt Q9Y4B6)
Sequence of UniProt Q9Y4B6 (whole entry, looked up): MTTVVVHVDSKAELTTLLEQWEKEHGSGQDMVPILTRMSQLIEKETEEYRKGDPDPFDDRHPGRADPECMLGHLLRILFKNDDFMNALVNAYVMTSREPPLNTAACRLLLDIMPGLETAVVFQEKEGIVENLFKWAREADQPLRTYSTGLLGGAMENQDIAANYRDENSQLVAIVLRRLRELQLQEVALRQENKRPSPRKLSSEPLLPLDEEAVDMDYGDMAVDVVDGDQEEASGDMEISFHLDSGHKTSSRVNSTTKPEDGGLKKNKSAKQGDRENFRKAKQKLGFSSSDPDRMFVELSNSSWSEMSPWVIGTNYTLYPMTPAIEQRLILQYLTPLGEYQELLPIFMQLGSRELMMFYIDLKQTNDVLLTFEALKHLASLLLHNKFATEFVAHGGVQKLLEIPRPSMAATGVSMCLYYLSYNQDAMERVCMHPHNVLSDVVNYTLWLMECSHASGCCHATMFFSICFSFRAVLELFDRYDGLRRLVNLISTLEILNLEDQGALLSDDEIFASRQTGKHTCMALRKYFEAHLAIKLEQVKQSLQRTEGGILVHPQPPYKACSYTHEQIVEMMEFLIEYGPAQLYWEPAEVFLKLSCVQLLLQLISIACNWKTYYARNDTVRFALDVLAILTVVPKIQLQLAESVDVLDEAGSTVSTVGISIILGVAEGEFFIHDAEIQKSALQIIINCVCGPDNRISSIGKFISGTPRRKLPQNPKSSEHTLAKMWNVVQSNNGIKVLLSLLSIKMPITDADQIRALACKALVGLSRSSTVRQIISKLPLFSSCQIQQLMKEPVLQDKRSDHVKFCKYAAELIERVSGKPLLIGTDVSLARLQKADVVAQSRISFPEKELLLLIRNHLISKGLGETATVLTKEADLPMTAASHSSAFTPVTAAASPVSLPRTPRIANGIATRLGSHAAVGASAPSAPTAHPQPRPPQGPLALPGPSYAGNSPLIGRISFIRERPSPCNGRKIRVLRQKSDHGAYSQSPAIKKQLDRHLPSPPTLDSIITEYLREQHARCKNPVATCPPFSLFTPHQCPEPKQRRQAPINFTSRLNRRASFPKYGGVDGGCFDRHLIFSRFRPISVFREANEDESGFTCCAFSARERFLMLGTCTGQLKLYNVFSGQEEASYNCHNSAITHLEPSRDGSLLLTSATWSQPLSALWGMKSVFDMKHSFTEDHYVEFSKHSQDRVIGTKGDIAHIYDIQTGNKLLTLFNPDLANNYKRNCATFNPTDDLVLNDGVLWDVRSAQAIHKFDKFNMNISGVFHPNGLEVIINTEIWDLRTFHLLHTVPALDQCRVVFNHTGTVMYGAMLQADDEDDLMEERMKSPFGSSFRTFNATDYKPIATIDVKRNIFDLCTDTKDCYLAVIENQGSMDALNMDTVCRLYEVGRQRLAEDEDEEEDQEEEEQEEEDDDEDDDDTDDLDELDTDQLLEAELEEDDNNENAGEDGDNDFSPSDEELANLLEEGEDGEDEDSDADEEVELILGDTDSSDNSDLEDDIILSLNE
WDR5; 27 °C: 14800 a.u.
DCAF1; 27.8 °C: 7790 a.u.
WDR5; 84.21 °C: 37400 a.u.
WDR5; 72.21 °C: 7740 a.u.
DCAF1; 57.81 °C: 28100 a.u.
DCAF1; 49.8 °C: 14400 a.u.

Sample 3
Compound: CCN1/C(=C/C=C2\CCCC(/C=C/C3=[N+](CC)c4ccccc4C3(C)C)=C2NCCCCCCCCN2CCC(Nc3nc4ccccc4n3Cc3ccc(F)cc3)CC2)C(C)(C)c2ccccc21
Cell line: U-87 MG
Tested at: concentration not given
Baseline: DMSO
Quantity: log2 fold change
measured: ORC6 mRNA: -1.09
measured: PSAP mRNA: 0.835
measured: TCHH mRNA: -3.32
measured: DLGAP1 mRNA: 1.89
measured: ERMP1 mRNA: -0.828
measured: U2AF1 mRNA: -2.93
measured: AS3MT mRNA: -1.33
measured: ZFYVE1 mRNA: 0.998
measured: TBX18 mRNA: -1.04

Other studies, line by line
PKMYT1: Membrane-associated tyrosine- and threonine-specific cdc2-inhibitory kinase (PKMYT1, Homo sapiens, UniProt Q99640)
Sequence of UniProt Q99640 (whole entry, looked up): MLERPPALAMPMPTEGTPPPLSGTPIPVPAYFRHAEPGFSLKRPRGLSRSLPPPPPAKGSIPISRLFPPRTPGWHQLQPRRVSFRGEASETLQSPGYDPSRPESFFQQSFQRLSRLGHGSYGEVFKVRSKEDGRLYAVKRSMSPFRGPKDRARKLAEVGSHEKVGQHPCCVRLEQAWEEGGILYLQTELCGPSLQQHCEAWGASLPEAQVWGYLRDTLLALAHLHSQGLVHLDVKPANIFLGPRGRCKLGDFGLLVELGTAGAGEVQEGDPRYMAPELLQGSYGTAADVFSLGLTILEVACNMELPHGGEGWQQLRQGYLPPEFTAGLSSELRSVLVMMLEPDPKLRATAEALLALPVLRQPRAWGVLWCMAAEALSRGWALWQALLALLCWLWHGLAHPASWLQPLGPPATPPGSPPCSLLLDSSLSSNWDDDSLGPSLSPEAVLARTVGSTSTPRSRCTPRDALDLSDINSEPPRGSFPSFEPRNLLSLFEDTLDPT
Cc1ccc(O)c(C)c1-c1cnc2[nH]c(-c3cnc(N)nc3)cc2c1C#N
NanoBRET signal (PKMYT1; target engagement, NanoBRET; 0.05 nM): 29.3 mBU and 29.1 mBU

Cc1nc(C)c(C=[N+]([O-])C(C)(C)C)nc1C
striatal HVA content (HPLC-ECD; MPTP mouse model, striatum; 10 mg/kg): 0.686 ng/mg tissue and 1.12 ng/mg tissue and 0.488 ng/mg tissue and 0.84 ng/mg tissue and 0.687 ng/mg tissue and 0.695 ng/mg tissue and 0.935 ng/mg tissue

Cc1ncsc1-c1ccc(C(CO)NC(=O)C2CC(O)CN2C(=O)C(C(C)C)n2cc(-c3ccc(COc4c(-c5c(C)c(F)cc6[nH]ncc56)c(C5CC5)cc5c(N6CC7CC6CN7)nc(OC6CCOCC6)nc45)cc3)nn2)cc1 (stereo not drawn)
mRNA level (qRT-PCR, measured: MYC; mouse, PK-59 xenograft, tumour; 30 mg/kg, 24 h, unit not given; baseline: vehicle): 0.328 and 0.434 and 0.343

Cc1ncc(-c2cc3c(C#N)c(-c4c(C)ccc(O)c4C)cnc3[nH]2)cn1
plasma concentration (Sprague-Dawley rat; oral, dose not given, 24 h): not detected

CC(=O)c1cccc(Nc2c3c(nc4ccccc24)CCC3)c1
selectivity ratio (Leishmania donovani; THP-1, DD8 promastigote; baseline: THP-1 cytotoxicity over promastigote activity): 5.68

COCC1CC2C(CCC3(C)C(O)CCC23)c2ccc(O)cc21 (stereo not drawn)
log2 expression ratio (A549; DNA microarray, measured: CCL22; concentration not given; baseline: untreated A549 cells): 0

CO[C@H]1CC[C@H](CNc2ccc(S(=O)(=O)NC(=O)c3ccc(N4CCN(CC5=C(c6ccc(Cl)cc6)CC(C)(C)CC5)CC4)cc3Oc3cnc4[nH]ccc4c3)cc2[N+](=O)[O-])CC1
IC50 (colorectal cancer organoid sample I; 4 days): > 10000 nM

CCOc1ccc2nc(Sc3nc(Nc4ccc(I)cc4)nc(N4CCOCC4)n3)sc2c1
enzyme activity (L444P/L444P Gaucher fibroblasts; 4-MUG hydrolysis in lysate; 10 µM, 72 h; baseline: vehicle): 202% and 171% and 308% and 287% and 163% and 267%

Cc1ncsc1-c1ccc(C2(NC(=O)C3CC(O)CN3C(=O)C(NC(=O)c3ccc(COc4c(-c5c(C)c(F)cc6[nH]ncc56)c(C5CC5)cc5c(N6CC7CC6CN7)nc(OC6CCOCC6)nc45)cc3)C(C)(C)C)CC2)cc1 (stereo not drawn)
Kd (von Hippel-Lindau disease tumor suppressor, with Elongin B/C (VHL, Homo sapiens, UniProt P40337); SPR, single-cycle; immobilized VCB complex; binary): 2560 nM and 1310 nM and 904 nM

Cc1ccc(O)c(C)c1-c1cnc2[nH]c(-c3cnc(N4CCC(CCN5CCN(c6ccc7c(c6)C(=O)N(C6CCC(=O)NC6=O)C7=O)CC5)CC4)nc3)cc2c1C#N (racemic)
inhibition (PKMYT1; binding, HTRF; 0.15 nM): 4.88% and 5.04%

COc1cc(C(=O)OCCCN2CCCN(CCCOC(=O)c3cc(OC)c(OC)c(OCc4ccc([N+](=O)[O-])cc4)c3)CC2)cc(OC)c1OC
paw withdrawal threshold (mechanical pain, von Frey test; mouse, STZ diabetic neuropathy; intravenous, 30 mg/kg, 5 h post-dose, first injection, day 8): 0.29 g and 0.05 g and 0.2 g and 0.44 g and 0.23 g

Cc1ccc(O)c(C)c1-c1cnc2[nH]c(-c3cnc(N4CCC5(CC4)CC(N4CCN(c6ccc7c(c6)C(=O)N(C6CCC(=O)NC6=O)C7=O)CC4)CO5)nc3)cc2c1C#N (mixture of isomers)
inhibition (PKMYT1; binding, HTRF; 111.11 nM): 98.7% and 98.9%

c1ccc2c(Nc3ccc4c(c3)OCCO4)c3c(nc2c1)CCC3
selectivity ratio (Leishmania donovani; THP-1, DD8 promastigote; baseline: THP-1 cytotoxicity over promastigote activity): 10.7

Repeated from above (sample 3):
measured: ORC6 mRNA: -1.09
measured: PSAP mRNA: 0.835
measured: TCHH mRNA: -3.32
measured: DLGAP1 mRNA: 1.89
measured: ERMP1 mRNA: -0.828
